Assay results of several laboratories.
A part holds a random share of what one study measured. Changes are numbered by the printed parent chain.

Series 1
Target: HLA class I histocompatibility antigen, A alpha chain, allele A*80:01 (Homo sapiens, UniProt P04439)
Read-out: peptide-MHC binding
Molecule type: peptide
Tested at: concentration not given
Sequence	binding
ERWFVRNPF	inactive
EAEKQLQQY	inactive
SLLHESTLK	inactive
NVMDPMHGA	inactive
LPLKMLNIPSINVH	inactive

Series 2
Target: Centromere-binding protein 1, full length, N-terminal tag (CBF1, Saccharomyces cerevisiae, UniProt P17106, residues 1-351)
Sequence of UniProt P17106 (whole entry, looked up): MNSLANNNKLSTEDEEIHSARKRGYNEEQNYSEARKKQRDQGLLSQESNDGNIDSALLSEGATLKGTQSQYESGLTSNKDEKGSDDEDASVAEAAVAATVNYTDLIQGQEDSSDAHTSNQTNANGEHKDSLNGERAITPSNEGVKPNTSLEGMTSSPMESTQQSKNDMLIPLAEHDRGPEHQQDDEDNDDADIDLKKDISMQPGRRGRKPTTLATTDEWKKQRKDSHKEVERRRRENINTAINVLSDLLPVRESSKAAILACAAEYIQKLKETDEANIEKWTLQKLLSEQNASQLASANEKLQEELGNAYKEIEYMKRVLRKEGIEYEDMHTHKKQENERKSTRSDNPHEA
Method: protein-binding microarray
Molecule type: double-stranded DNA, one strand shown
Medium: in vitro
Tested at: 0.8 µM
Setting: whole 60-bp probe, no competitor
Reading: higher = stronger binding
All sequences stand within: … GTCTTGATTCGCTTGACGCTGCTG
Strand	fluorescence intensity
GAACAAGATAATGGTGACGAAAATATTATGCAATAG	544 a.u.
TGTACGAAGCTATGCAACATCAGTATAGTAGTTAGG	519 a.u.
GAATTGTGGTTAATGCACATGTAAAGTTGTGAATAG	642 a.u.
GAAATGGATTCCTATACCACGAGGAGAACTAGTTAG	597 a.u.
GAAAGAAATGACGATAAGGTGAGGAGGATAAAATAG	542 a.u.
GAACAGTTATACTATCACGTTGCACCTGGGGCCTAG	1250 a.u.
GAATGTTGACGACATCACGGTCTCTGTTAACCCTAG	576 a.u.
CTAATCACTTTTGATCACGTGCCTCGGGTGGAATTC	28200 a.u.

Series 3
Target: Eukaryotic initiation factor 4A-I (EIF4A1, Homo sapiens, UniProt P60842, residues 1-406, full length assumed)
Sequence of UniProt P60842 (whole entry, looked up): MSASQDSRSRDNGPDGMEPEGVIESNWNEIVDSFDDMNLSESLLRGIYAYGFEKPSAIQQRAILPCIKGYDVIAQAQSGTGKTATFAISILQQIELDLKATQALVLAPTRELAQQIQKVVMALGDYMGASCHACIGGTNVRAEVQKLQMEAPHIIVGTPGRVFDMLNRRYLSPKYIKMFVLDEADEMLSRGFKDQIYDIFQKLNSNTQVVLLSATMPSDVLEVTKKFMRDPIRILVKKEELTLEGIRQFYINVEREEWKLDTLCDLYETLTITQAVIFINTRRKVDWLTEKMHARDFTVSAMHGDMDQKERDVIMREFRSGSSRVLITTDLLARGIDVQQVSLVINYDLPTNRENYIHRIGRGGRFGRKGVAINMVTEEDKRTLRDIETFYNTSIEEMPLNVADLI
Method: RNA Bind-n-Seq
Molecule type: RNA
Medium: in vitro
Tested at: 90 pmol
Setting: 4-mer, random 30-nt RNA, single round
With: 3 µM DMDA-PatA, 2 mM ADP, 2 mM phosphate
Reference: input library
Reading: higher = stronger binding
Strand	4-mer enrichment [fold]
AGGC	1.07
AACG	0.731
GCCA	0.613
CGAU	0.907
UGUG	1.9
AGGA	1.09
GUAG	1.08
CUAU	0.656

Series 4
Target: ABI1, truncated, D143A, DHFR fusion (Arabidopsis thaliana)
Method: DHFR PCA, deep sequencing
Medium: yeast
Setting: methotrexate growth selection, single substitutions
With: (+)-ABA 0.11 µM
Reference: wild-type fitted maximum
Reading: higher = stronger binding
Starting sequence: PYL1, truncated, DHFR fusion (Arabidopsis thaliana); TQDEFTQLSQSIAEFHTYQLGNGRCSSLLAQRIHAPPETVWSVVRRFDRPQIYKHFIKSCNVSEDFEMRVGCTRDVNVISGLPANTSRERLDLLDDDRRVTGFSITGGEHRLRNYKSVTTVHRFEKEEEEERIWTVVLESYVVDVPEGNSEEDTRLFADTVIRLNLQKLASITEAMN
Change	relative binding score [%]
T154F	-15.6
V118R	49.1
F47A	-0.393
H110N	61
R98Q	13.5
D92F	-5.31
F47H	-2.58
V43T	-1.69

Series 5
Target: CCNB2, cyclin fold, Cln2 fusion (human)
Method: yeast growth competition, sequencing
Medium: yeast
Setting: strong parent motif
Reference: not given
Reading: higher = stronger binding
Starting sequence: viral docking peptide; TSVRRALFTGGSD; partner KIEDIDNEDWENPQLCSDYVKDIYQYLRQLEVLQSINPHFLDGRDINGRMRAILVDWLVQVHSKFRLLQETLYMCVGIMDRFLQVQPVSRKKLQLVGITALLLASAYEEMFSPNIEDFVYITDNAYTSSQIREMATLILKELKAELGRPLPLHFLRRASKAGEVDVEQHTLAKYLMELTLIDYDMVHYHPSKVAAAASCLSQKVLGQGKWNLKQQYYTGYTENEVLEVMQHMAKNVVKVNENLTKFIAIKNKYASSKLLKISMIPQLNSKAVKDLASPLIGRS
Change	normalised enrichment score
TSVRRALCTGGSD [F8C]	0.224
TSNRRALFTGGSD [V3N]	0.0299
TSVRRALFNGGSD [T9N]	0.625
TSVRRWLFTGGSD [A6W]	0.102
TSVRRALNTGGSD [F8N]	0.176
TSVRRALATGGSD [F8A]	0.181
TSVRRALFFGGSD [T9F]	1.59
TSVRRALMTGGSD [F8M]	0.383
TSVRRNLFTGGSD [A6N]	0.789
TSVRRAVFTGGSD [L7V]	0.39
TSVRFALFTGGSD [R5F]	-0.251
TSVRRALFPGGSD [T9P]	0.564
TSVERALFTGGSD [R4E]	0.0457
TSVRRYLFTGGSD [A6Y]	0.553
ASVRRALFTGGSD [T1A]	1.24
TSVRRALYTGGSD [F8Y]	0.289
TSVRRALFTGGPD [S12P]	0.899
TSVNRALFTGGSD [R4N]	0.0614
TSVRRALFTRGSD [G10R]	0.256
TSHRRALFTGGSD [V3H]	-0.0421
TSVRRALFTKGSD [G10K]	0.469
TSVRRALFTGLSD [G11L]	0.951
TDVRRALFTGGSD [S2D]	0.481
TSVRRALITGGSD [F8I]	0.192
TSVRMALFTGGSD [R5M]	0.548

Some of these lines once more (series 2):
Strand	fluorescence intensity
GAACAAGATAATGGTGACGAAAATATTATGCAATAG	544 a.u.
TGTACGAAGCTATGCAACATCAGTATAGTAGTTAGG	519 a.u.
GAATTGTGGTTAATGCACATGTAAAGTTGTGAATAG	642 a.u.
GAAATGGATTCCTATACCACGAGGAGAACTAGTTAG	597 a.u.
GAAAGAAATGACGATAAGGTGAGGAGGATAAAATAG	542 a.u.
